Measured values of several laboratories.
A part holds a random share of what one study measured.

Series 1 — technique: RNA Bind-n-Seq; molecule type: RNA; sample: in vitro; concentration: 365 nM; reference: no-protein control; reading: higher = stronger binding; endpoint: RBNS enrichment (R)
Target: RNA binding protein fox-1 homolog 2, RRM domain, GST-SBP tag (RBFOX2, Homo sapiens, UniProt O43251-10, residues 100-194)
Notes: natural RNA segment, single round, ends assumed
Target sequence (chain): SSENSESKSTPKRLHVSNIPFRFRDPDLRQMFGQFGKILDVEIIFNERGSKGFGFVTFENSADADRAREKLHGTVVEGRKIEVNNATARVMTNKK
GGGAGUUCUACAGUCCGACGAUCGAAGAGAAGCGUGUUAGCCCAUUUGAGGUCUGGGGAAUCAUGUAAAGGGUACCCAGACCUCACUUUUAGUUAUUUACAUCAAUGAGUUCUUUCAGGGAACCAAACCCAGAUGGAAUUCUCGGGUGCCAA: 0.288
GGGAGUUCUACAGUCCGACGAUCAAUAACUUUAUUUUUUAAGACAGGGUUGCAAAUGUUUAAGAAACCAGAAGCAGGUAAAUCUGCCUAUGUCCAGAGCCUUGCUUGCUGCUUGAGUCAUGCCUUACCUGCUAUGGAAUUCUCGGGUGCCAA: 1.17
GGGAGUUCUACAGUCCGACGAUCUAAAGUUUCUAAGGUGCUCCUCCUCAAACUCCAUUUUUACAAUAUCCGUAUUGUAAAAUUUUCAUUUUCAGUAACACCCAGUAGAUAAUUUUUCAAAGACGAUCCUCCUCUGGAAUUCUCGGGUGCCAA: 0.349
GGGAGUUCUACAGUCCGACGAUCUGCAGGAGACAGGCAGGAUCAGUUGUGGUAAUGAUGCCUGUGGCAAACACAAACACCUACUUGGGCUGCACACAGUCACACAAUCAAUCUAUAAUUCUUGGGGUUAGCUCUGGAAUUCUCGGGUGCCAA: 0.704

Series 2 — technique: universal PBM; molecule type: double-stranded DNA, one strand shown; sample: in vitro; concentration: not given; reading: higher = stronger binding; endpoint: E-score
Target: Sal-like protein 4, full length isoform B (SALL4, Homo sapiens, UniProt Q9UJQ4-2, residues 1-616)
Notes: 8-mer, flanks averaged, mean of replicates
CATTCTCC: 0.034
ACGTGGCA: -0.174
ATCGGACC: -0.22
ATTATCGC: 0.265
CTGGACCA: -0.213
AGCGATCG: -0.138

Series 3 — technique: RNA Bind-n-Seq; molecule type: RNA; sample: in vitro; concentration: not given; reference: input RNA pool; reading: higher = stronger binding; endpoint: bound/input enrichment
Target: RING finger protein unkempt homolog, zinc fingers 1-6, GST-SBP tag (UNK, Homo sapiens, UniProt Q9C0B0, residues 30-357)
UniProt Q9C0B0, sequence (30-357, looked up): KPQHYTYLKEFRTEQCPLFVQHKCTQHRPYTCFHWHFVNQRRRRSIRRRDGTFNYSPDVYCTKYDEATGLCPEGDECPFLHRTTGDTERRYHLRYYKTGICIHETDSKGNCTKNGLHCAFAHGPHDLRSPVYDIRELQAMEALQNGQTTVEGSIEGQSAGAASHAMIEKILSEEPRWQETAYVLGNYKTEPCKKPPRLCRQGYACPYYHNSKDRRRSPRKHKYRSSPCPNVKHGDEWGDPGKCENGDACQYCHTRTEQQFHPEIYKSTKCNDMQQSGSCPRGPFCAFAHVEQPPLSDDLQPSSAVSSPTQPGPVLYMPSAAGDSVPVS
Notes: RNA with constant flanks, human-mouse chimeric sites, ends assumed
Shared flanks, not repeated: GGGAGUUCUACAGUCCGACGAUC … CAACAGAGGAUUGAGCAUCA
CUAAUCCCCUUUACUGCUCCCCCACUUCUCAUGGUAAUAACAAAGUCUUAUAUCCCCGUCCUAGCUUUCACUCAGAUGGCUUAUGGAGCCGGUUUCCUAGCUUUCUUGGGAGGGAUCAGA: 0.409 ratio
UAAAUUAGGGCUGCCGUUUUCUGUUUCUCCCUGGGCUGCAGACAGCUAGGCGGUUUUAUCUAGCUUAUACAAGGCUGCUGGUGUUCCCUCUUUUUUUCCACGAGGGUGUUUUUGGCUGCA: 1.12 ratio
GUGCCCUUCUCGCUGCUGCGGAGCCCGCCCAGCUGGGCAUUCCGGGACGACUGGUACGCACACAGCCGCCUCUUCGAUCAAGCUUUCGGGGUGCCCCGGUUGCCCGAUGAGUGGUCGCAG: 0.0938 ratio
CCAAUUGUGGAGCAGUACUUGAAGACAAAGAAAAAUUCUAGUCAUUUAAUCAUCAAGUACAUUAGCUGCCGCCUGCUGACACUCAUCAUUAUACUGUUAGCGUGUAUCUACCUGGGCUAU: 0.593 ratio
UCCCAAAUCCAGCAGCUAGAAGGAGCCUUGAGACAAACACUCCACACACAGGGAAGGCAAUAGCUUUGUACAUUGGUUUACAUUUUUUCCCCCUGUGGAUUUUUCUAUCCUAGUGCUUGC: 0.389 ratio

Further values, each from its own experiment
PhoQ, residues 284 288 289 292 302 303 SLSVQF
fold induction (PhoP, residues 12 14 15 18 19 LWHVM (Escherichia coli, UniProt P23836); Sort-seq, refers to: YFP reporter; E. coli; PhoQ-PhoP variant library, added: 10 µM Mg2+; reference: high Mg2+ state, higher = stronger signaling): 1.36

Excerpt of the above (series 1):
GGGAGUUCUACAGUCCGACGAUCGAAGAGAAGCGUGUUAGCCCAUUUGAGGUCUGGGGAAUCAUGUAAAGGGUACCCAGACCUCACUUUUAGUUAUUUACAUCAAUGAGUUCUUUCAGGGAACCAAACCCAGAUGGAAUUCUCGGGUGCCAA: 0.288
